Measured values of several laboratories.
Numbered parts are unrelated; each lists some results of a single study.

Series 1 — technique: aptamer microarray, sandwich; molecule type: DNA with 2'F-ANA; matrix: in vitro; tested at: 200 nM; together with: Cy3 exosite-II aptamer, 400 nM; reading: higher = stronger binding; strand: GGTTGGTGTGGTTGG
Target: Prothrombin, mature alpha-thrombin (F2, Homo sapiens, UniProt P00734)
Setting: whole 15-mer aptamer, many near background
Modification	mean fluorescence intensity
2'F-ANA at 1 2 4 5 6 8 9 10 13 14	48 a.u.
2'F-ANA at 1 2 6 7 8 9 11 13	136 a.u.
2'F-ANA at 2 3 8 9 12	1190 a.u.
2'F-ANA at 1 4 5 6 7 12 14	44 a.u.
2'F-ANA at 1 3 4 9 10 11 12 13 14	51.3 a.u.
2'F-ANA at 3 4 5 10 12 15	90.2 a.u.
2'F-ANA at 4 5 7 8 11 15	59.9 a.u.
2'F-ANA at 1 2 3 6 7 8 11 12 14 15	89.9 a.u.
2'F-ANA at 1 3 4 6 7 8 9 10 14	60.7 a.u.
2'F-ANA at 1 2 3 4 5 6 8 9 13	63.5 a.u.
2'F-ANA at 1 2 5 7 10 11 14 15	69.6 a.u.
2'F-ANA at 2 4 6 7 9 15	261 a.u.
2'F-ANA at 2 3 5 6 7 8 12 13 14 15	59.8 a.u.
2'F-ANA at 6 7 9 12	765 a.u.
2'F-ANA at 2 3 5 7 8	138 a.u.
2'F-ANA at 1 2 3 5 6 7 8 11 12 13 14 15	47.7 a.u.
2'F-ANA at 1 2 5 8 10 11 12 13 14	45.5 a.u.
2'F-ANA at 1 2 5 7 9 10 11 13	48.4 a.u.
2'F-ANA at 2 3 4 6 8 9 10	222 a.u.
2'F-ANA at 2 5 6 7 9 10 11 12	55.2 a.u.
2'F-ANA at 1 2 3 6 15	232 a.u.
2'F-ANA at 1 6 8 9 12 13	299 a.u.
2'F-ANA at 1 2 3 4 5 7 8 9 10 11 12 14	77.2 a.u.
2'F-ANA at 2 5 9 10 11 12 13	50.7 a.u.
2'F-ANA at 9 10 13 14 15	99.5 a.u.

Series 2 — technique: protein binding microarray; molecule type: double-stranded DNA, one strand shown; matrix: in vitro; tested at: not given; relative to: not given; reading: higher = stronger binding
Target: Histone acetyltransferase KAT6A, winged helix 2, GST fusion (KAT6A, Homo sapiens, UniProt Q92794, residues 85-181)
Setting: 8-mer, flanks averaged, mean of 2 arrays, mostly near background
Construct (chain): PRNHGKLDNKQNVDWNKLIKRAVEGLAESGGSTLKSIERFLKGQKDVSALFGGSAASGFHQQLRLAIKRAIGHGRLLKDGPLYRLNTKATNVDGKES
Strand	E-score
CGGGGACG	-0.0142
AAAGGCTA	-0.0806
AGCCATCC	0.0722
AGGTTTGG	-0.0151
CAGCTTCA	0.00828
ACTTCCAC	-0.0864
GACACTTA	-0.135
GAATATAA	-0.0698
CGTTGCTA	0.0804
AAGTCTGT	-0.195
GTGTTAGA	-0.121
CCGGGTCA	0.0279
AAGATCCC	-0.0159
ATCAGCAA	0.188
CCAAGATA	-0.0171
AGCGCTTG	0.106
ACAGTTTC	0.0641
ATCACGGA	0.137
CTCAGTAA	-0.038
CATTATTC	0.00831
CAATCCAC	-0.0212
AAGTCGGC	-0.117
GAGTCAAC	-0.136

Series 3 — technique: RNA Bind-n-Seq; molecule type: RNA; matrix: in vitro; tested at: 200 nM; setting: whole 134-nt RNA, ends assumed; together with: 150 mM KCl; relative to: input library; reading: higher = stronger binding
Target: Fragile X messenger ribonucleoprotein 1, C-terminal low-complexity region (Fmr1, Mus musculus, UniProt P35922)
All sequences stand within: GGGAGUUCUACAGUCCGACGAUC … UGGAAUUCUCGGGUGUCAAGG
Strand	log2 enrichment
CUCAAGUCCUGUGCUACACAUCGUAUGUACCGAAUCGGAAAAAGGUGGAAAGGAAAGUAUUAUGUUACGCCGUUCGGAUCUGCACUUCCA	-0.241
ACCAUGCAGGUGGGCAUCUUUGGGAAGUGGGGCAAGGGGGGGAUAGGGAGGGGGGUAACACUUUGCGAACAGGUGGUCCCAGGUCGUUUC	1.04
AAGUCCUGUGCUACACAUCGUAUGUACCGAAUCGGAAAAAGGAAAAAAAGGAAAGGAAAGUAUUAUGUUACGCCGUUCGGAUCUGCACUU	-0.952
AGUCCUGUGCUACACAUCGUAUGUACCGAAUCGGGGUUUGGGGUUUUUGGGGUGGGGAAAGUAUUAUGUUACGCCGUUCGGAUCUGCACU	1.2
GCAGGAAGUAAAAACAAAUGGAAAUGCUUCGGAUAGUGACAGGGGUGGGGGUUGCUAAGGAAAGGGUGGGAUGGGAGUGGGUAAAGAGUU	0.253
UGGCCCUGGUGGCAUGCGGGGAGGAAGAGGUGGCCUCAUGGAUCGUGGUGGUCCCGGUGGAAUGUUCAGAGGUUGCCGUGGUGGAGACAG	-0.275
UGGCCCUGGUGGCAUGCGGGGAGGAAGAGGUGGCCUCUUGGAUCGUGGUGGUCCCGGUGGAAUGUUCAGAGGUGGCCGUGGUGGAGACAG	0.0386
UAACUUUAGAGGAGGAUCUGAUGCAUAUGGCAGUGGACGUGGAUUUGGGGAUGGCUAUAAUGGGUAUGGAGGAGGACCUGGAGGUGGCAA	0.498
UGCUGCUUUCUGCCUUGGUGGCAGGCAGAGAACUGUCUCGUACUAGAAUUCAAGGAGGAAAGAAGAAGAAAUAAAAGAAGCUGCUCCAUU	-1.15

Series 4 — technique: protein-binding microarray; molecule type: double-stranded DNA, one strand shown; matrix: in vitro; tested at: 250 nM; setting: 60-bp whole probe; together with: salmon DNA 0.4 mg/ml; relative to: random background probes; reading: higher = stronger binding; all sequences stand within: GCCTAGCAC … GTCTTGATTCGCTTGACGCTGCTG
Target: Interferon regulatory factor 5, full length, phosphomimetic (IRF5, Homo sapiens, UniProt Q13568-2, residues 1-514, K96S/S451D/S453D/S456D/S462D)
Strand	log fluorescence [z-score]
CGAGTTTCTATTTTCTGAATGTGCTAG	5.34
ACAGCAAGAGCTCAACGGGGGTGCTAG	0.0236
GACGGACTGGGGTTCCGGGACGTGCTA	-0.751
GACGAACTGGGGTCTGGAGACGTGCTA	-0.419
TTAGGACTGGGTATCTGTTAGTGCTAG	0.127
TTAGATCTCATTATCGATTAGTGCTAG	6.17
TTCTTAATGCTTCTGGACCAGTGCTAG	-0.0431
GACGGTTTCGACTATCCGGACGTGCTA	6.71
TTAGGTCTCGGACTGGATTAGTGCTAG	-0.322
TTAGAACTCAGACTGGATTAGTGCTAG	0.0479
GACGGTTTCGGGGTTCGGGACGTGCTA	5
GACGAACTGAGTTTCGAGAAGTGCTAG	4.82
CATGCTCTTATATACCTGTATGTGCTA	0.409
TTAGATTCCGGGTTTCGATTAGTGCTA	6.76
TCATGTATATATTTTAAACTGTGCTAG	0.47
TCAAAATTATCTTTAATACTGTGCTAG	0.516
TTAGATATCAGACTGGATCAGTGCTAG	0.321
GACGGTATCGGGCTTCGGGACGTGCTA	1.02
GACGGTTTGGGGTATCGGGACGTGCTA	0.222

Series 5 — technique: competition protein-binding microarray; molecule type: double-stranded DNA, one strand shown; matrix: in vitro; tested at: 2 µM; together with: Cbf1 competitor, 0.05 µM; reading: higher = stronger binding; all sequences stand within: … GTCTTGATTCGCTTGACGCTGCTG
Target: Phosphate system positive regulatory protein PHO4, full length, GST-tagged (PHO4, Saccharomyces cerevisiae, UniProt P07270, residues 1-312)
Setting: whole 60-bp probe, lowest competitor level
Construct (chain): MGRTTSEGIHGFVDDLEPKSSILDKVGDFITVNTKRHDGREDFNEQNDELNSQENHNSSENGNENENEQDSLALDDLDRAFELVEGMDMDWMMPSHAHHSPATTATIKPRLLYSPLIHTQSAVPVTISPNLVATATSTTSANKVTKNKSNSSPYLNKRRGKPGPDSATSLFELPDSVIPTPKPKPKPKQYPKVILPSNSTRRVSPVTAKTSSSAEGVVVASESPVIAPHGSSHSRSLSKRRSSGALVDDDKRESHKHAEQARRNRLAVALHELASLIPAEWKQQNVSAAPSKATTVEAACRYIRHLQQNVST
Strand	fluorescence intensity
AGGAAATCAAGACTGAACGTGTTGAAGATCAAAAGG	10100 a.u.
CGTCCTAGTGATTGTCACACAACTTCCATGAGGAAG	4380 a.u.
TTACGGTAGAGGGAGCACATGGGCGGAAACAAACCT	10200 a.u.
GTCGCTGCGCGCGATCATGCGTCTACGCGCTTCTGT	5320 a.u.
CTTCTGTAAATTTGGTAGGTGGGTGGACGCGCCCCG	4340 a.u.
CGGGGTTAAGTTTGTCACTGGACTTGCTTGCAGCAG	3270 a.u.
GTCGACGATACATACAGAGCTGTTACAAAGTTCCAT	3210 a.u.
CATACCCAACCTTGCTTGGTGGGTGAAGATATTTGT	3980 a.u.
AAAAGAGGTACGTTGCGCGTGTTTCTAGGGAGAAGA	8780 a.u.
AGATGGAGAACCTGGCACGTGTACAAGAGTACAAGG	16900 a.u.
GTCTTGTCTCATTGCGTGGTGGGTGTCCCCACTTCA	6500 a.u.
CATACCCAACCTTTTCACGTGATTTAAGATATTTGT	14100 a.u.
TGCGCAACAACTTGTCACCTGACTTTATGTCTAGAA	3200 a.u.

Excerpt of the above (series 2):
Strand	E-score
CATTATTC	0.00831
GAGTCAAC	-0.136
ATCAGCAA	0.188
CCAAGATA	-0.0171
ACTTCCAC	-0.0864
AGCCATCC	0.0722
ATCACGGA	0.137
AAAGGCTA	-0.0806
CGGGGACG	-0.0142
AAGTCTGT	-0.195
GTGTTAGA	-0.121
AAGATCCC	-0.0159
CAGCTTCA	0.00828
GACACTTA	-0.135
CAATCCAC	-0.0212
